Published values of several laboratories.
Parts stem from different laboratories: compare values within a part only.
Chain of UniProt Q16832 (whole entry, looked up): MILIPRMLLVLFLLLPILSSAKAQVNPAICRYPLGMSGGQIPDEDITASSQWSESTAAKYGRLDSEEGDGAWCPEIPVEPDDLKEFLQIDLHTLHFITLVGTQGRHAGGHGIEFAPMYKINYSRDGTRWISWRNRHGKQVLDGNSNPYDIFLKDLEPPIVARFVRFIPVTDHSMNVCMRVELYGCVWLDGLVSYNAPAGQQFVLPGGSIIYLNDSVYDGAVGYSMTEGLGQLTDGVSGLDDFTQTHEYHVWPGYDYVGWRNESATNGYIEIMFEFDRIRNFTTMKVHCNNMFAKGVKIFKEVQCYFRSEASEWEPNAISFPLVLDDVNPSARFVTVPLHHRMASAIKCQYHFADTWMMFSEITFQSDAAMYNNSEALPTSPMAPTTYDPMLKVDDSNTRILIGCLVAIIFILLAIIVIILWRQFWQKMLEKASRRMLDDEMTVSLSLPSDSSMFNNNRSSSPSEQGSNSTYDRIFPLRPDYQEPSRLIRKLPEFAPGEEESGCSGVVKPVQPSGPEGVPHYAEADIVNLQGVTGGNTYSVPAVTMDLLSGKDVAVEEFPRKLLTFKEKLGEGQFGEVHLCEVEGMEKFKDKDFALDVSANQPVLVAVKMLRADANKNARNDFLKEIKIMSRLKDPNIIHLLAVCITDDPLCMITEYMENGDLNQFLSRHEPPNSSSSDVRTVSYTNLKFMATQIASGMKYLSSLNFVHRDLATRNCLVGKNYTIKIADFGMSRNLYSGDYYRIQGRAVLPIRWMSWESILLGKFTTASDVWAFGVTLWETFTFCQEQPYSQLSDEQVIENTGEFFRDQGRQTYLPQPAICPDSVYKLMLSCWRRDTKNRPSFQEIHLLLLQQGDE
Chain of UniProt P08913 (whole entry, looked up): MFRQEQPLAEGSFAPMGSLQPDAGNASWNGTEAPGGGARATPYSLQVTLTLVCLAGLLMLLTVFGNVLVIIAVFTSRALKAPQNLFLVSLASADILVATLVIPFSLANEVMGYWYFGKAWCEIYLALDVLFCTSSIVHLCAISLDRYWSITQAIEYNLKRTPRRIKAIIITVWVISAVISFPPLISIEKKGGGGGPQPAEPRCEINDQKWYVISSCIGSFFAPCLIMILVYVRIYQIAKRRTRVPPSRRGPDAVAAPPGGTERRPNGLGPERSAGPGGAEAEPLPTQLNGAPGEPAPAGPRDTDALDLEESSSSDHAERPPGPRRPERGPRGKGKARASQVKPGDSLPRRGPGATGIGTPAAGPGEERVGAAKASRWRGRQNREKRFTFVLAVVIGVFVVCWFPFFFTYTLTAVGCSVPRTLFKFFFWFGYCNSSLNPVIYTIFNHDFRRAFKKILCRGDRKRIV
Chain of UniProt P08581 (whole entry, looked up): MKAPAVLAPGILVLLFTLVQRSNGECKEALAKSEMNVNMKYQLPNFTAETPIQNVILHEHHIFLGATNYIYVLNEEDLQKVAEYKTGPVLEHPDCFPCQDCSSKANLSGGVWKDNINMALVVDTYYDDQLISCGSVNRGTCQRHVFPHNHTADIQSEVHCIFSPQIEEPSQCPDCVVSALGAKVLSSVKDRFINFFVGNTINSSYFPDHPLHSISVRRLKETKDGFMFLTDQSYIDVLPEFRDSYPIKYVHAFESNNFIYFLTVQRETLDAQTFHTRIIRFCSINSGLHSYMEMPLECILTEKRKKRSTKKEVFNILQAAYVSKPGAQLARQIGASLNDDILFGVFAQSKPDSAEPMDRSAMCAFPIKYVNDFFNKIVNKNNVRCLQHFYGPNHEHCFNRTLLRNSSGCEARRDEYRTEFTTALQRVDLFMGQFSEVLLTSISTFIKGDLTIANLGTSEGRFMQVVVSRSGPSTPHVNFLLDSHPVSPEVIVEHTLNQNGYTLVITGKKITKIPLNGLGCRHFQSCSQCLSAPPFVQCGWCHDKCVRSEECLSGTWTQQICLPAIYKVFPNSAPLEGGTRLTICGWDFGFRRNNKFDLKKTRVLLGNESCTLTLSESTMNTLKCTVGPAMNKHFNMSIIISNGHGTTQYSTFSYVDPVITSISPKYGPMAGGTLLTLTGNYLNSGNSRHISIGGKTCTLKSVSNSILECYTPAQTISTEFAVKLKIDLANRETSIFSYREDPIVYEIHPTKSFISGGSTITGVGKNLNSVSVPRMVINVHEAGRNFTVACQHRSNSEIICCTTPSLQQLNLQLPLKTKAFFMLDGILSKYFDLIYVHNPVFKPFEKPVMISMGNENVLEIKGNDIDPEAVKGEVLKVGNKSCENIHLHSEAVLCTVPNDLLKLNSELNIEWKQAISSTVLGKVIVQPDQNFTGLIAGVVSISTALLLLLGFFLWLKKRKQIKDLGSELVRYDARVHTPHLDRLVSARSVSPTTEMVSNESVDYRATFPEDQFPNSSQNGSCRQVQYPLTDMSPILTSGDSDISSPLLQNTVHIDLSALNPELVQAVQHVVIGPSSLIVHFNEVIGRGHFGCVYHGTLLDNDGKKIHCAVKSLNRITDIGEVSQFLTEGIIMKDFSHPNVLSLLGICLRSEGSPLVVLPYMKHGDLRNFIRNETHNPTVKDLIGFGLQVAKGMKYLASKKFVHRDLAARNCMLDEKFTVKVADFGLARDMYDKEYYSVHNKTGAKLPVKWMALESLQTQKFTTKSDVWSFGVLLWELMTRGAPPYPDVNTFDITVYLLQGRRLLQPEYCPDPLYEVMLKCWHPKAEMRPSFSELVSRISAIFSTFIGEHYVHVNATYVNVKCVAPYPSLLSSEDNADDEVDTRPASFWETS
Chain of UniProt P49761 (whole entry, looked up): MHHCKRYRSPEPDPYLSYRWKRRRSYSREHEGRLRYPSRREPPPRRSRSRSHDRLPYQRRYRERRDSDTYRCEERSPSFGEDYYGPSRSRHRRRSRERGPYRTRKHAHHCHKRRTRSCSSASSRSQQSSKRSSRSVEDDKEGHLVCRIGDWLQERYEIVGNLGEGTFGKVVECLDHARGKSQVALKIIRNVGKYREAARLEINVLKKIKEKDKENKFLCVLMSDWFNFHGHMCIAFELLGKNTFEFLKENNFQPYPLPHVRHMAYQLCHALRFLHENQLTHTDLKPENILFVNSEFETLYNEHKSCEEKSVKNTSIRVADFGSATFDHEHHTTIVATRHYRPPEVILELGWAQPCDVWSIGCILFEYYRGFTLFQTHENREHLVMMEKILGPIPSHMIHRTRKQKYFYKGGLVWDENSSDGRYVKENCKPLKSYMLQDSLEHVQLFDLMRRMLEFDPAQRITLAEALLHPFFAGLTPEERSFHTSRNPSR
Chain of UniProt P50750 (whole entry, looked up): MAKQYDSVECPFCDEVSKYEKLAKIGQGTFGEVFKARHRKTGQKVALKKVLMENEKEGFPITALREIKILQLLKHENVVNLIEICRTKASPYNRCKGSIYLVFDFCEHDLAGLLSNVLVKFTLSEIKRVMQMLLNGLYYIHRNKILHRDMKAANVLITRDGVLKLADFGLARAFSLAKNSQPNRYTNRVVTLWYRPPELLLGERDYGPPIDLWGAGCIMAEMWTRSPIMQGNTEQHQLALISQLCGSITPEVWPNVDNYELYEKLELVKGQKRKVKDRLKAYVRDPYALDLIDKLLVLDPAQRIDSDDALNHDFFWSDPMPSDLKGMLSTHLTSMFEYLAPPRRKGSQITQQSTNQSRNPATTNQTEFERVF
Chain of UniProt P08912 (whole entry, looked up): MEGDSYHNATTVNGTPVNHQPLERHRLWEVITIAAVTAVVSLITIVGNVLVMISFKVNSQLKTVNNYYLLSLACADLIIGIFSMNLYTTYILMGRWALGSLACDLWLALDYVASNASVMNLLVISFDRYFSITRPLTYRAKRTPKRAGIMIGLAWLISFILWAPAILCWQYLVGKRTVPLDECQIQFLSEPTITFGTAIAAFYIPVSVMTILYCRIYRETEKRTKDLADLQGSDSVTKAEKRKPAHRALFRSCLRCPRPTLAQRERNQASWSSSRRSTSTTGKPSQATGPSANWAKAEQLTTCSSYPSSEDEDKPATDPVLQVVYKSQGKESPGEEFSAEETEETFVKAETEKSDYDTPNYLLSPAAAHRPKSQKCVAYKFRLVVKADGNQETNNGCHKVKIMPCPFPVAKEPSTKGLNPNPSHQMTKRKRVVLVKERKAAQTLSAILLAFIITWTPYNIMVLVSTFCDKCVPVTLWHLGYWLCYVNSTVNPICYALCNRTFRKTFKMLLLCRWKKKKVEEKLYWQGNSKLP
Chain of UniProt Q05512 (whole entry, looked up): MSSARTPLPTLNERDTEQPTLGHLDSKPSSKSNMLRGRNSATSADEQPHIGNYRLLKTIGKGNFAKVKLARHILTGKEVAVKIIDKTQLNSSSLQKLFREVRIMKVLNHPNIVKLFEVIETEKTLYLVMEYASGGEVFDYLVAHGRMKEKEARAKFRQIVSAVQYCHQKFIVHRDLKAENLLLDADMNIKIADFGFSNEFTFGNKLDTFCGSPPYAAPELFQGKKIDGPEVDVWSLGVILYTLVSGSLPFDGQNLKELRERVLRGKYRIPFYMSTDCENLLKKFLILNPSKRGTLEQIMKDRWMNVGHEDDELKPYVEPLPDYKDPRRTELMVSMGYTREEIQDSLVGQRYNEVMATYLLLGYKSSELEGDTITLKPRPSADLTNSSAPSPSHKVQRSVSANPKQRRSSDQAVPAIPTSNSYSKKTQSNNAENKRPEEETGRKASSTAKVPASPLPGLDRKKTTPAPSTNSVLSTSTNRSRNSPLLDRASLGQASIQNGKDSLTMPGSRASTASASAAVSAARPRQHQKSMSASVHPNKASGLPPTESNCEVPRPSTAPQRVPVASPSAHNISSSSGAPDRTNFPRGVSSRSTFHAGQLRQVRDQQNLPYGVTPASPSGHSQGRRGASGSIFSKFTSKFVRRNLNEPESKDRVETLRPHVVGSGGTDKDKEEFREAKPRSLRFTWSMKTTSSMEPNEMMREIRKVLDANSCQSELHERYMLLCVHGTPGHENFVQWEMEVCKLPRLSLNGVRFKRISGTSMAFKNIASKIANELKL

Block 1
SMILES: N#Cc1ccc(Nc2ccc3[nH]c(=O)[nH]c3c2)c(Cl)c1
Effect on: cell-free assay
Tested at: 10 µM
Quantity: inhibition
target = HRH1 (Homo sapiens, UniProt P35367); value = 14.7%
target = CHRM2 (Homo sapiens, UniProt P08172); value = 3.51%
target = DRD3 (Homo sapiens, UniProt P35462); value = 3.81%
target = DRD4 (Homo sapiens, UniProt P21917); value = -2.02%
target = CHRM5 (Homo sapiens, UniProt P08912); value = 12.6%
target = ADRA2A (Homo sapiens, UniProt P08913); value = 2.09%
target = ADRB1 (Homo sapiens, UniProt P08588); value = 4.98%
target = ADRB2 (Homo sapiens, UniProt P07550); value = -0.51%

Block 2
Host: mouse
Matrix: microsomes or S9
Tested at: 2 µM
Time: 0.5 h
Quantity: remaining compound
Structure (SMILES) = CC(=O)c1c(Nc2ccc(C)cc2Cl)[nH]c2c(F)ccc(C)c2c1=O; value = 0.0469%
Structure (SMILES) = CN1C(=O)C(O)(C2OC(C)(C)CCC2=O)c2ccccc21 (stereo not shown); value = 34.9%
Structure (SMILES) = CCN(Cc1cccc(F)c1)C(=O)c1occc1CS(=O)(=O)c1ccccc1; value = 0.422%
Structure (SMILES) = O=C(O)CCN(C(=O)c1cc2c(s1)CCCC2)C1CCOCC1; value = > 100%
Structure (SMILES) = CN1CCC(C(=O)OC2CC(C)(C)Oc3ccc(Br)cc32)CC1=O (stereo not shown); value = 1.86%
Structure (SMILES) = CC(C)[C@@H](NS(=O)(=O)c1ccc(F)cc1)C(=O)O; value = 86.9%
Structure (SMILES) = CC(NS(=O)(=O)c1ccc(S(=O)(=O)NC2CCCCC2C)cc1)c1ccc(F)cc1 (stereo not shown); value = 0.844%
Structure (SMILES) = NC(=O)COc1ccc(-c2nc(-c3ccccc3)no2)cc1; value = 11.1%
Structure (SMILES) = CCCn1nccc1-c1csc(S(=O)(=O)Nc2ccccc2)c1; value = 0.0076%
Structure (SMILES) = CCCC(=O)c1c[nH]c2c(OCC)nccc2c1=O; value = 27%
Structure (SMILES) = Cc1cccc(C2NCCc3c2[nH]c2ccccc32)c1 (stereo not shown); value = 17.7%

Block 3
SMILES: N#Cc1cnc2cnc(NCc3cccnc3)cc2c1Nc1ccc(F)c(Cl)c1
Effect on: enzyme activity
Action: inhibitor
Tested at: 0.5 µM
Relative to: control
Quantity: remaining activity
target = NEK3 (Homo sapiens, UniProt P51956); value = 56%
target = MET (Homo sapiens, UniProt P08581); value = 94.9%
target = GRK4 (Homo sapiens, UniProt P32298); value = 98.8%
target = PNCK (Homo sapiens, UniProt Q6P2M8); value = 99.8%
target = CLK4 (Homo sapiens, UniProt Q9HAZ1); value = 63.3%
target = PRKG2 (Homo sapiens, UniProt Q13237); value = 90.9%
target = Myosin-IIIb (MYO3B, Homo sapiens, UniProt Q8WXR4); value = 87.9%
target = TXK (Homo sapiens, UniProt P42681); value = 88.1%
target = MARK4 (Homo sapiens, UniProt Q96L34); value = 96.4%
target = ROCK1 (Homo sapiens, UniProt Q13464); value = 99.8%
target = Cyclin-dependent kinase 9, with cyclin K (CDK9, Homo sapiens, UniProt P50750); value = 97.3%
target = DDR2 (Homo sapiens, UniProt Q16832); value = 91.9%
target = TLK2 (Homo sapiens, UniProt Q86UE8); value = 106%
target = MAP2K1 (Homo sapiens, UniProt Q02750); value = 86.2%
target = CLK3 (Homo sapiens, UniProt P49761); value = 96.7%

Block 4
Structure (SMILES): COc1cc(C(=O)N2CCC(N3CCN(C)CC3)CC2)ccc1Nc1ncc2c(n1)N(C)c1ccccc1C(=O)N2C
Quantity: inhibition
target or system = STLK5 (mouse); assay = probe labelling, KiNativ, item: LYS2 site peptide; system = brain tissue lysate (mouse); conditions = 1 µM, with: ATP acyl-phosphate probe; value = -17.9%
target or system = CaMK2a (mouse); assay = probe labelling, KiNativ, item: Lys1 site peptide; system = brain tissue lysate (mouse); conditions = 0.1 µM, with: ATP acyl-phosphate probe; value = 10.6%
target or system = human PBMC; assay = probe labeling, inhibitor, KiNativ profiling, item: WQGNDIVVkVLK; system = cell lysate; conditions = 1 µM, LYS1 site, with: ATP acyl-phosphate probe; value = -8.8%
target or system = human PBMC; assay = probe labeling, inhibitor, KiNativ profiling, item: WQGNDIVVkVLK; system = cell lysate; conditions = concentration not given, LYS1 site, with: ATP acyl-phosphate probe; value = 7.4%
target or system = SRPK1/SRPK2 (mouse); assay = probe labelling, inhibitor, KiNativ ActivX ADP probe; system = mouse brain lysate; conditions = 1 µM; value = 11.3%
target or system = CDK5 (mouse); assay = probe labelling, KiNativ, item: DLkPQNLLINR peptide, LYS2 site; system = brain tissue lysate (mouse); conditions = 0.1 µM, with: ADP acyl-phosphate probe; value = -9.1%
target or system = NDR2 (mouse); assay = probe labelling, KiNativ, item: DTGHIYAMkILR peptide, LYS1 site; system = brain tissue lysate (mouse); conditions = 1 µM, with: ADP acyl-phosphate probe; value = -0.4%
target or system = MST3 (mouse); assay = probe labelling, KiNativ ADP probe; system = mouse brain lysate; conditions = 1 µM, LYS1 labelled site; value = -29.1%
target or system = Serine/threonine-protein kinase MARK2 (Mark2, Mus musculus, UniProt Q05512); assay = KiNativ profiling; system = mouse brain lysate; conditions = 0.1 µM, LYS1 site, with: ADP acyl phosphate probe; value = 15.6%
target or system = RSKL1 domain 1 (mouse); assay = probe labelling, inhibitor, KiNativ ActivX ATP probe; system = mouse brain lysate; conditions = 1 µM; value = 5.8%
target or system = MAP2K4 (human); assay = probe labelling, KiNativ ADP probe; system = human PBMC lysate; conditions = concentration not given, LYS2 labelled site; value = 9.2%
target or system = MLK2 (mouse); assay = probe labelling, KiNativ ADP probe; system = mouse brain lysate; conditions = 1 µM, LYS1 labelled site; value = 7.4%
target or system = mouse ROCK1 and ROCK2; assay = probe labelling, KiNativ ATP probe; system = mouse brain lysate; conditions = 0.1 µM, LYS2 site DVkPDNMLLDK; value = -5.4%
target or system = MLKL (human); assay = probe labelling, KiNativ ADP probe; system = human PBMC lysate; conditions = concentration not given, LYS1 labelled site; value = 17.5%
target or system = MAP2K4 (mouse); assay = probe labelling, KiNativ, item: DIkPSNILLDR peptide, LYS2 site; system = brain tissue lysate (mouse); conditions = 0.1 µM, with: ATP acyl-phosphate probe; value = -0.8%

Some of these lines once more (block 4):
target or system = human PBMC; assay = probe labeling, inhibitor, KiNativ profiling, item: WQGNDIVVkVLK; system = cell lysate; conditions = 1 µM, LYS1 site, with: ATP acyl-phosphate probe; value = -8.8%
target or system = RSKL1 domain 1 (mouse); assay = probe labelling, inhibitor, KiNativ ActivX ATP probe; system = mouse brain lysate; conditions = 1 µM; value = 5.8%
target or system = MLKL (human); assay = probe labelling, KiNativ ADP probe; system = human PBMC lysate; conditions = concentration not given, LYS1 labelled site; value = 17.5%
target or system = human PBMC; assay = probe labeling, inhibitor, KiNativ profiling, item: WQGNDIVVkVLK; system = cell lysate; conditions = concentration not given, LYS1 site, with: ATP acyl-phosphate probe; value = 7.4%
